Assay results of several laboratories.
Parts stem from different laboratories: compare values within a part only. Substitutions count along the parent as printed.
UniProt Q9HC98, sequence (whole entry, looked up): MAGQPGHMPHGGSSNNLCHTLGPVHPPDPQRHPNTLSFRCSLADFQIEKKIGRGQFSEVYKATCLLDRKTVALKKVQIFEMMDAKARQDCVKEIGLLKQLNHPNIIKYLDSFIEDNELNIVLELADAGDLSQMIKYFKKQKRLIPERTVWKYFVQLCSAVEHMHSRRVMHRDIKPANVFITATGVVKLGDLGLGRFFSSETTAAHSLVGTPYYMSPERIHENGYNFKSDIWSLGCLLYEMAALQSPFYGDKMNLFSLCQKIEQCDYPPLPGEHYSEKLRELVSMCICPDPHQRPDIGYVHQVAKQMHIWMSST
UniProt P10721, sequence (whole entry, unmodified, looked up): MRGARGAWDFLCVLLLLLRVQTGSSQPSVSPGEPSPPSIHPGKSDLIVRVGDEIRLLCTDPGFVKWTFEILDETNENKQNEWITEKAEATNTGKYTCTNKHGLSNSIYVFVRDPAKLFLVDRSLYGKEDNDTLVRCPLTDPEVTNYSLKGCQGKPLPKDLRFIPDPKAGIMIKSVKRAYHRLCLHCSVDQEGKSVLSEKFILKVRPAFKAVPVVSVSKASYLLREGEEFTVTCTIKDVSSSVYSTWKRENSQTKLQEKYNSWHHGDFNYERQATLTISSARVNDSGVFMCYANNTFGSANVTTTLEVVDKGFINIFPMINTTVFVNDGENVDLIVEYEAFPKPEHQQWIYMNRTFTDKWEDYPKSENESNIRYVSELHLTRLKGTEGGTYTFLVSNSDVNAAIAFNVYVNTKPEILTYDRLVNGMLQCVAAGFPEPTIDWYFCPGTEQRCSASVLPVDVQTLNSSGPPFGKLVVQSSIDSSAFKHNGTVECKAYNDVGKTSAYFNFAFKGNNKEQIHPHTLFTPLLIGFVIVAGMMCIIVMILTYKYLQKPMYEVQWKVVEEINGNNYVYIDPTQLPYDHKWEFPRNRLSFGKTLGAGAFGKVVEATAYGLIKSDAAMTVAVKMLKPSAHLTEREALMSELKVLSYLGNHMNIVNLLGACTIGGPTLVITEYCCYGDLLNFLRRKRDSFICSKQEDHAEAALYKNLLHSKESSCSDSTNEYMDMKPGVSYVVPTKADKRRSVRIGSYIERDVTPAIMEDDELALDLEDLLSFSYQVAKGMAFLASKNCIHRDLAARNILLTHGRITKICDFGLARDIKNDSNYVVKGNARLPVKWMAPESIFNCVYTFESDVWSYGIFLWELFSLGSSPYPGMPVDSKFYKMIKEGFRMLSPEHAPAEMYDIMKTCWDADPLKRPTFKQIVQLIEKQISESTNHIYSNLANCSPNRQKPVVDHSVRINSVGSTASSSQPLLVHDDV
UniProt Q8NEB9, sequence (whole entry, looked up): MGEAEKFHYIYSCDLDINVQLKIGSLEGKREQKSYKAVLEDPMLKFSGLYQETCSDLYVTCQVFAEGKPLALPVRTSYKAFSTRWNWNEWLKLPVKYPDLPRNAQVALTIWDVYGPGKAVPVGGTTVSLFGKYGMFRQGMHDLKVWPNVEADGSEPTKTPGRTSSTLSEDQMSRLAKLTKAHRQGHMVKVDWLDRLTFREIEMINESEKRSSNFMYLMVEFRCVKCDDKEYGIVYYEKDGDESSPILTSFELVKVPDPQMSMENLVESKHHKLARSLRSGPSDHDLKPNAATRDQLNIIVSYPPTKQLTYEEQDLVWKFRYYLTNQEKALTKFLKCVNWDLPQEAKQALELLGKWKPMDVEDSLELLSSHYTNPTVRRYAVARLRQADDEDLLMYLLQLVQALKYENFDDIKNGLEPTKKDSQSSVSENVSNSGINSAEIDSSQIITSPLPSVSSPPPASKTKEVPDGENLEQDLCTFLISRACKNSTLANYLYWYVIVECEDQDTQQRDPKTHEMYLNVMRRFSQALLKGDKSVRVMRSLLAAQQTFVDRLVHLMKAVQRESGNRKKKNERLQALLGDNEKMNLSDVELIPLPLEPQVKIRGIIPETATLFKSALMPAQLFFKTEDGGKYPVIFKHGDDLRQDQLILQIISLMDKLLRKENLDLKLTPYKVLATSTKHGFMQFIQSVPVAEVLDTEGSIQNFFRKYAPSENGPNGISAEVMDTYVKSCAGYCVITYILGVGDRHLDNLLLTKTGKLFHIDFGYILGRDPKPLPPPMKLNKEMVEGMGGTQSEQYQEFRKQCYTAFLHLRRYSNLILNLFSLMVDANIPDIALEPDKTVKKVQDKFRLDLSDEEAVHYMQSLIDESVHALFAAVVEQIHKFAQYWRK
UniProt Q13237, sequence (whole entry, looked up): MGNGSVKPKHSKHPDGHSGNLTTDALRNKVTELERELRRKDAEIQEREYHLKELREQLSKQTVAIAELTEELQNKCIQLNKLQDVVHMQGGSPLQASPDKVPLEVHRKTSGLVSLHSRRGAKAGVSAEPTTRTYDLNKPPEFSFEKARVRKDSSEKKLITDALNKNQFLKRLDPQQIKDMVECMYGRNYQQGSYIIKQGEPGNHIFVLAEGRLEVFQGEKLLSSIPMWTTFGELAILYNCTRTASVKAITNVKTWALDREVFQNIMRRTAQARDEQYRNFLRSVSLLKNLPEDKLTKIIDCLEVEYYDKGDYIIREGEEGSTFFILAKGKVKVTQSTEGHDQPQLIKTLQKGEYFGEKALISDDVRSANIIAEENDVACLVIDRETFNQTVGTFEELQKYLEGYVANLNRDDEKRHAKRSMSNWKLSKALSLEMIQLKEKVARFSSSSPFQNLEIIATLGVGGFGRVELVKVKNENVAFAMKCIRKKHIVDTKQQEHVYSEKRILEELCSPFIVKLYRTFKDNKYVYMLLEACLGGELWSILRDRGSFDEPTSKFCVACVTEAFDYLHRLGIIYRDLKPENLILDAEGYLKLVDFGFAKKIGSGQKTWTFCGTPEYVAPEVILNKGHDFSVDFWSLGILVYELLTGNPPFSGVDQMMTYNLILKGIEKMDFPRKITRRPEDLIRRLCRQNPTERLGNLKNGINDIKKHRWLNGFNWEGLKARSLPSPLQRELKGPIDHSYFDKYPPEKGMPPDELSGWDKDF

Block 1
Target: RNA binding protein fox-1 homolog 2, RRM domain, GST-SBP tag (RBFOX2, Homo sapiens, UniProt O43251-10, residues 100-194)
Technique: RNA Bind-n-Seq
Form: RNA
Sample: in vitro
Tested at: 365 nM
Setting: natural RNA segment, single round, ends assumed
Baseline: no-protein control
Direction: higher = stronger binding
Shared flanks, not repeated: GGGAGUUCUACAGUCCGACGAUC … UGGAAUUCUCGGGUGCCAA
Target sequence (chain): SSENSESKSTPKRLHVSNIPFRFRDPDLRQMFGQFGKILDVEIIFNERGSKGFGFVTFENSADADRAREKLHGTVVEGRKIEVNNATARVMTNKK
| Strand | RBNS enrichment (R) |
| --- | --- |
| AGCGGGGCCUGGCGGGAUGGGCCACCGCCGACUUUGUACCCCCCAACCCCUGAGGAAGAUGGGGGCAAGAAGAUCACGCUCCCCGCCUGUUCCCCCGCCGCUUUUCUCCU | 0.384 |
| UUUCCAUUUUGAAUGUGUUUGGACUAAAACAAUAAACUACUGAUGUCUGCAGCAUUUAUCUAUGUCCUAAUUUAAUCUGAAGUUAUAUUUUCUCAAAUAUUUUCUUCCAG | 0.666 |
| UCCCGGACCUGGAUGUACAGGGCAGUCUCUCUUCCCGGGGCUAUGGCUGGGCCUGUCCUGCCGUCAUGGCCCCCUGCUUCCUGCUCCUUGGAGCUGGCUCCCGGACCUUG | 0.552 |
| AAUCUAUAAAACAGGCCUGAGAAGAUAGUUCUGGUCUUGUUCUGACUGUGGUAACUAGCUGUGACCAAGAAGAGAAAAUGUUGUGUCUUGGGAAAUGAACUUGGAUCUCU | 1.89 |
| UUUUUUCAGUUAGAAGAAGGUUUUUAUGAGUUAAUUUUACCCAUAAAUAUUUCAGUAAUUUUGGAGUGGAAGUUGGGUUGCUAACAUCAGAGCUCAUGUUCAUGUUUUAG | 0.416 |
| AAACGACCAAAAAACCAACAGUAACACCAGUGAAACCCCACACUGUCGGGCUUAUAAAAAUCUGUGCCAUCAUGGUGAUUUUAUCCAAGACUGCUCCACUUACCCCAGUG | 0.4 |
| CGAGUGUGGACAACCACACCUGGCUCUGGCGUCUGGCGGUCACUUGACGCUCAUCUGCGUCUCCGUCUGCUAGGUGGUCGGUGAUAAAUUCAAAUGUAUCAGAUCUCUGU | 0.168 |
| UGGAGACAGCCUGAAAAGCAAAGGCCUCAUCUCCAUGGCACAGGGGAGAAGCGCAUCUACCGGGUGCCUGUUUUCACAGCGCCCUUCUGCCAGGCCCUGCUGGAAGAGCU | 0.686 |

Block 2
Target: ABI1, truncated, D143A, DHFR fusion (Arabidopsis thaliana)
Technique: DHFR PCA, deep sequencing
Sample: yeast
Setting: methotrexate growth selection, single substitutions
Added: (+)-ABA 58 µM
Baseline: wild-type fitted maximum
Direction: higher = stronger binding
Parent: PYL1, truncated, DHFR fusion (Arabidopsis thaliana); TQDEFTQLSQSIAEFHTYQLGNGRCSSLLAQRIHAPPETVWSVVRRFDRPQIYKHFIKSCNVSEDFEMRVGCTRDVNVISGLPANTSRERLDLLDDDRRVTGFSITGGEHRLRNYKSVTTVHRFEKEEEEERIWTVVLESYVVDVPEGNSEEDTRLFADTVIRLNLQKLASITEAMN
| Change | relative binding score |
| --- | --- |
| D75Q | 85.8% |
| E14F | 41.3% |
| L156I | 80.6% |
| V100I | 92.8% |
| K58T | 71.9% |
| Q19L | 76.1% |
| S27H | 80.4% |
| F157I | 58.4% |

Block 3
Structure (SMILES): CS(=O)(=O)NCC[C@H](NC(=O)c1cncc2c1cnn2-c1ccc(F)cc1)c1ccnc(S(C)(=O)=O)c1
Read-out: cell-free assay
Technique: competition with immobilised ligand
Tested at: 1 µM
| target | remaining binding |
| --- | --- |
| PRKG2 (Homo sapiens, UniProt Q13237) | 87% |
| KIT (Homo sapiens, UniProt P10721, D816H) | 100% |
| NEK6 (Homo sapiens, UniProt Q9HC98) | 100% |
| PIK3C3 (Homo sapiens, UniProt Q8NEB9) | 100% |

Block 4
Target: RAC-alpha serine/threonine-protein kinase (AKT1, Homo sapiens, UniProt P31749)
UniProt P31749, sequence (whole entry, looked up): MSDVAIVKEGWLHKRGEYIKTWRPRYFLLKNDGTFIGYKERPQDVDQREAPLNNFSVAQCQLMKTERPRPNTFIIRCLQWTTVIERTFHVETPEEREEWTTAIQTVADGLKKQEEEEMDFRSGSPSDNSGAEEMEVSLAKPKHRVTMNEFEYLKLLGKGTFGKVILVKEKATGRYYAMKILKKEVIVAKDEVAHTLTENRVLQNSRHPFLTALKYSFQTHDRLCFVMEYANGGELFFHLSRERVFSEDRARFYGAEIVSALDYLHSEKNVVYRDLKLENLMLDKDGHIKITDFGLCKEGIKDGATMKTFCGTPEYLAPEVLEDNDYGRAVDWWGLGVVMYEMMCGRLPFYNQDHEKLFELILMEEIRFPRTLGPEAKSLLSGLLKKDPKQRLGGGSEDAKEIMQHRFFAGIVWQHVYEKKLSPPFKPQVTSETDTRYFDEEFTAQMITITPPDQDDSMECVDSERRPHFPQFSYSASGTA
Read-out: enzyme activity
Mode: inhibitor
Tested at: 0.5 µM
Baseline: control
| SMILES | remaining activity [%] |
| --- | --- |
| COc1ccc(CNC(=O)Nc2ncc([N+](=O)[O-])s2)cc1 | 102 |
| COc1ccc(OC)c2c(=S)c3ccccc3[nH]c12 | 89.7 |
| Cc1ccc(Nc2nccc(N(C)c3ccc4c(C)n(C)nc4c3)n2)cc1S(N)(=O)=O | 91.2 |
| Nc1[nH]nc2nc3ccccc3nc12 | 106 |
| O=C(O)c1ccc2c3c1cccc3c(=O)n1c3ccccc3nc21 | 101 |
| Cn1sc(=O)n(Cc2ccccc2)c1=O | 101 |
| O=c1c2ccccc2[nH]c(=S)n1CCN1CCC(=C(c2ccc(F)cc2)c2ccc(F)cc2)CC1 | 98.3 |
| CNC(=O)c1cc(Oc2ccc(NC(=O)Nc3ccc(Cl)c(C(F)(F)F)c3)cc2)ccn1 | 96.2 |
| Nc1ccc2ncnc(NCCc3ccc(Oc4ccccc4)cc3)c2c1 | 98.2 |
| C#Cc1cccc(Nc2ncnc3cc(OCCOC)c(OCCOC)cc23)c1 | 93.7 |
| O=C1NC(=O)C(c2cn(CCCn3ccnc3)c3ccccc23)=C1Nc1ccccc1 | 101 |
| CC(C)[C@H](CO)Nc1nc(Nc2cc(N)cc(Cl)c2)c2ncn(C(C)C)c2n1 | 117 |
| O=C1NC(=O)C(c2cn(CCCO)c3ncccc23)=C1c1cnccn1 | 98.6 |
| COc1cc2ncnc(Nc3ccc(F)c(Cl)c3)c2cc1OCCCN1CCOCC1 | 94.1 |
| O=S(=O)(c1cccc2cnccc12)N1CCCNCC1 | 99.3 |

Repeated from above (block 3):
| target | remaining binding |
| --- | --- |
| PRKG2 (Homo sapiens, UniProt Q13237) | 87% |
| KIT (Homo sapiens, UniProt P10721, D816H) | 100% |
| NEK6 (Homo sapiens, UniProt Q9HC98) | 100% |
| PIK3C3 (Homo sapiens, UniProt Q8NEB9) | 100% |
